Assay results gathered from unrelated publications.
Compare with care: the assays were run in different laboratories. ± marks the error that the study gave.

CC(C)[C@H](NC(=O)[C@@H]1CCCN1C(=O)[C@H](CCCNC(=N)N)NC(=O)[C@H](CS)NC(=O)[C@H](Cc1c[nH]c2ccccc12)NC(=O)[C@H](CCCNC(=N)N)NC(=O)[C@@H](Cc1ccccc1)NC(=O)[C@H](Cc1c[nH]cn1)NC(=O)[C@H](CCC(=O)O)NC(=O)[C@H](CS)NC(=O)[C@H](CS)NC(=O)CNC(=O)[C@@H]1CC(=O)N[C@@H](CCCNC(=N)N)C(=O)NCC(=O)N[C@@H](CC(=O)O)C(=O)N[C@H](Cc2ccc(O)cc2)C(=O)N1)C(N)=O [technetium-99m labelled]
tissue uptake (C57 mouse, female, B16/F1 melanoma, bone; intravenous, 0.037 MBq, 2 h): 0.87 ± 0.15 %ID/g

CCCC[C@H](NC(=O)CNC(=O)CNC(=O)CN1CCN(CC(=O)O)CCN(CC(=O)O)CCN(CC(=O)O)CC1)C(=O)N[C@H]1CC(=O)NCCCC[C@@H](C(N)=O)NC(=O)[C@H](Cc2c[nH]c3ccccc23)NC(=O)[C@H](CCCNC(=N)N)NC(=O)[C@@H](Cc2ccccc2)NC(=O)[C@H](Cc2c[nH]cn2)NC1=O [lead-203 labelled]
tissue uptake (C57 mouse, heart; intravenous, 0.056 MBq, 4 h): 0.28 ± 0.08 %ID/g

CCCC[C@H](NC(=O)CNC(=O)CNC(=O)CN1CCN(CC(=O)O)CCN(CC(=O)O)CC1)C(=O)N[C@H]1CC(=O)NCCCC[C@@H](C(N)=O)NC(=O)[C@H](Cc2c[nH]c3ccccc23)NC(=O)[C@H](CCCNC(=N)N)NC(=O)[C@@H](Cc2ccccc2)NC(=O)[C@H](Cc2c[nH]cn2)NC1=O [copper-64 labelled]
tissue uptake (female C57 mouse, B16/F1 melanoma, heart; intravenous, 0.037 MBq, 24 h): 0.13 ± 0.09 %ID/g

CN1C(=O)[C@@H](Cc2ccc(O)c(I)c2)NC(=O)CNC(=O)[C@H](Cc2ccc3ccccc3c2)NC(=O)[C@H](CCCNC(=N)N)NC(=O)[C@H]1CCCNC(=O)c1ccc(CNC(=O)CN2CCN(CC(=O)O)CCN(CC(=O)O)CCN(CC(=O)O)CC2)cc1 [lutetium-177 labelled]
tissue uptake (female CB-17 SCID mouse, Daudi xenograft, heart; intravenous, 6 h, CXCR4 blocking, added: AMD3100 2 mg/kg coinjected): 0.17 ± 0.02 %ID/g

O=C([O-])CN1CCN(CC(=O)[O-])CCN(CC(=O)NCCc2ccc3c(c2)C2C=CCC2C(c2cc4c(cc2Br)OCO4)N3)CCN(CC(=O)[O-])CC1.[111In+3] (centres unmarked)
tissue uptake (mouse, Hec50 endometrial tumour, liver; 0.5 h post injection): 14.3 ± 1.5 %ID/g

CCCC[C@H](NC(=O)CNC(=O)CNC(=O)CN1CCN(CC(=O)O)CCN(CC(=O)O)CCN(CC(=O)O)CC1)C(=O)N[C@H]1CC(=O)NCCCC[C@@H](C(N)=O)NC(=O)[C@H](Cc2c[nH]c3ccccc23)NC(=O)[C@H](CCCNC(=N)N)NC(=O)[C@@H](Cc2ccccc2)NC(=O)[C@H](Cc2c[nH]cn2)NC1=O [copper-64 labelled]
tissue uptake (female C57 mouse, B16/F1 melanoma, stomach; intravenous, 0.037 MBq, 4 h): 5.09 ± 0.69 %ID/g

CN(C)c1ccc(-c2nc3ccc(OCCCCCN4CCN5CCN(CC4)CC(=O)[O][Al]([18F])[O]C(=O)C5)cc3s2)cc1
tissue uptake (ICR mouse, muscle; intravenous, 30 min): 0.8 ± 0.09 %ID/g

CC(C)[C@H](NC(=O)[C@@H]1CCCN1C(=O)[C@H](CCCNC(=N)N)NC(=O)[C@H](CS)NC(=O)[C@H](Cc1c[nH]c2ccccc12)NC(=O)[C@H](CCCNC(=N)N)NC(=O)[C@@H](Cc1ccccc1)NC(=O)[C@H](Cc1c[nH]cn1)NC(=O)[C@H](CCC(=O)O)NC(=O)[C@H](CS)NC(=O)[C@H](CS)NC(=O)[C@@H]1CC(=O)N[C@@H](CCCNC(=N)N)C(=O)NCC(=O)N[C@@H](CC(=O)O)C(=O)N[C@H](Cc2ccc(O)cc2)C(=O)N1)C(N)=O [technetium-99m labelled]
tissue uptake (C57 mouse, female, B16/F1 melanoma, blood; intravenous, 0.037 MBq, 2 h): 0.74 ± 0.34 %ID/g

Excerpt of the above:
CCCC[C@H](NC(=O)CNC(=O)CNC(=O)CN1CCN(CC(=O)O)CCN(CC(=O)O)CCN(CC(=O)O)CC1)C(=O)N[C@H]1CC(=O)NCCCC[C@@H](C(N)=O)NC(=O)[C@H](Cc2c[nH]c3ccccc23)NC(=O)[C@H](CCCNC(=N)N)NC(=O)[C@@H](Cc2ccccc2)NC(=O)[C@H](Cc2c[nH]cn2)NC1=O [lead-203 labelled]
tissue uptake (C57 mouse, heart; intravenous, 0.056 MBq, 4 h): 0.28 ± 0.08 %ID/g
